Published values pooled from the literature.
Protocols differ between the studies behind these lines. ± gives the spread as reported. Converted amounts (≈) assume the structure as drawn.

| Structure (SMILES) | tested on | assay | system | setting | how to read | endpoint | result |
| --- | --- | --- | --- | --- | --- | --- | --- |
| O=C(N[C@@H](Cn1cncn1)c1ccc(F)cc1F)c1ccc(-c2nnc(-c3ccccc3)o2)cc1 | Leishmania infantum CYP51 | – | – | concentration not given | – | remaining activity | 68 ± 5.1% |
| C[C@@H]1O[C@@H](O[C@H]2[C@H](O[C@H]3CC[C@@]4(C)C(CC[C@]5(C)C4CC=C4C6CC(C)(C)CC[C@]6(C(=O)O)CC[C@]45C)[C@]3(C)CO)OC[C@H](O)[C@@H]2O)[C@H](O)[C@H](O[C@@H]2O[C@H](CO)[C@@H](O)[C@H](O)[C@H]2O)[C@H]1O (some centres unmarked) | PPARs | reporter gene, agonist | HepG2 transfected PPRE-luciferase and PPAR | 20 h | – | EC50 | 1900 ± 300 nM |
| CC[C@H]1CN2CCc3c([nH]c4cccc(OC)c34)[C@H]2C[C@@H]1/C(=C\OC)C(=O)OC | rabbit anti-mitragynine polyclonal antibody | antigen binding, competitor, competitive indirect ELISA | – | 0.001 to 50.0 µg/mL | – | IC50 | 2.27 µg/mL (≈ 5.7 µM) |
| CCS(=O)(=O)[C@H]1[C@H](O)[C@@H](N)[C@@H](O[C@H]2[C@H](O[C@@H]3O[C@H](CO)[C@@H](O[C@H]4O[C@@H](CN)[C@@H](O)[C@H](O)[C@H]4N)[C@H]3O)[C@@H](O)[C@H](N)C[C@@H]2N)O[C@@H]1CO | bacterial hybrid ribosome, human cytoplasmic A site | cell-free translation | – | – | baseline: cytoplasmic hybrid over wild-type bacterial | selectivity ratio | 16 |
| O=C(O)COc1ccc(Cl)cc1 | Torpedo CLC-0 T471S C212S | chloride current, inhibitor, patch clamp | – | -140 mV | baseline: wild type | affinity increase | ~10 fold |
| CC1(C)C(/C=C(\Cl)C(F)(F)F)C1C(=O)OC(C#N)c1cccc(Oc2ccccc2)c1 (centres unmarked) | glutathione S-transferase, Vaccinium arctostaphylos fruit | enzyme activity | – | concentration not given, with: CDNB and GSH | – | inhibition | inhibited |
| CCCCCCCCC(=O)NCc1ccc(O)c(OC)c1 | mouse mAb 1-G12 | antibody binding, indirect competitive ELISA | – | with: coating antigen 2-OVA | – | IC50 | > 4 µg/mL |
| CN[C@](C)(C[18F])C(=O)O | SK-OV-3 tumour model | – | host not given, liver | 30 min, tumour-bearing | – | tracer uptake | 5.1 %ID/g |
| CC(=O)N1c2ccc(-c3ccc(C(=O)NCCN4CC(N5CCN(CC(=O)N[C@H](C(=O)N6C[C@H](O)C[C@H]6C(=O)NCc6ccc(-c7scnc7C)cc6)C(C)(C)C)CC5)C4)cc3)cc2[C@H](Nc2ccc(Cl)cc2)C[C@@H]1C | Spodoptera frugiperda BRD3 | degrader, targeted MS | Spodoptera frugiperda L5 larvae | injection, 0.1 nmol/mg | – | degradation | 29% |
| CC(C)C(=O)N[C@H]1c2nc(CCc3ccccc3)cn2[C@H](CO)[C@@H](O)[C@@H]1O | human lysosomal HexA/HexB | – | – | – | baseline: HexA/B over OGA | selectivity ratio | > 200 fold |
| CC(C)C[C@H](NC(=O)[C@H](C)NC(=O)[C@H](CCCCN)NC(=O)[C@H](CCCNC(=N)N)NC(=O)[C@H](CCC(=O)O)NC(=O)[C@H](C)NC(=O)[C@H](CCC(=O)O)NC(=O)[C@H](CCCCN)NC(=O)[C@H](CCCCN)NC(=O)[C@H](CC(=O)O)NC(=O)[C@H](Cc1c[nH]cn1)NC(=O)[C@H](CC(=O)O)NC(=O)[C@H](Cc1c[nH]cn1)NC(=O)[C@H](CCCNC(=N)N)NC(=O)[C@H](CCC(=O)O)NC(=O)[C@H](CO)NC(=O)[C@H](CCCCN)NC(=O)[C@H](CC(C)C)NC(=O)[C@H](CCCNC(=N)N)NC(=O)[C@H](CCC(=O)O)NC(=O)[C@H](CC(C)C)NC(=O)[C@H](CCC(=O)O)NC(=O)[C@H](C)NC(=O)[C@H](CCC(=O)O)NC(=O)[C@H](CCC(=O)O)NC(=O)[C@H](C)NC(=O)[C@H](C)NC(=O)[C@H](CCC(=O)O)NC(=O)[C@H](CC(N)=O)NC(=O)[C@H](CCCCN)NC(=O)[C@H](CC(C)C)NC(=O)[C@H](CCCNC(=N)N)NC(=O)[C@H](CCC(N)=O)NC(=O)[C@H](CC(C)C)NC(=O)[C@H](CCC(=O)O)NC(=O)[C@H](C)NC(=O)[C@H](CC(=O)O)NC(=O)[C@H](C)NC(=O)[C@@H](NC(=O)[C@H](CC(C)C)NC(=O)[C@H](CCCCN)NC(=O)[C@H](CCC(=O)O)NC(=O)[C@@H](NC(=O)[C@H](CO)NC(=O)CN)C(C)C)[C@@H](C)O)C(=O)N[C@@H](CCC(=O)O)C(=O)N[C@@H](CC(=O)O)C(=O)N[C@@H](CCCCN)C(=O)N[C@@H](CC(C)C)C(=O)N[C@@H](C)C(=O)N[C@@H](CC(=O)O)C(=O)N[C@@H](Cc1ccc(O)cc1)C(=O)O | human K2 plasminogen complex | analytical ultracentrifugation | – | pH 7.4, 25 °C | – | molecular mass | 16200 ± 1000 Da |
| Cc1cc(O)cc(-c2nc(Nc3cc(C(F)(F)F)cc(C(F)(F)F)c3)ncc2-c2ccnc(Cl)c2)c1 | tyrosine kinases from HT-29 cells | kinase activity | – | 10 µM | – | inhibition | 30.4 ± 2.3% |
| O=C1N[C@@H](Cc2ccccc2)C(=O)N2CCC[C@@H]2C(=O)N[C@@H](Cc2ccccc2)C(=O)N[C@H]1Cc1c[nH]c2ccccc12 | kappa opioid receptor | antagonist | CHO cell membranes expressing KOR | with: dynorphin A | – | Kb | 65.2 ± 1.6 nM |
| C=CCn1nnc2c(NCc3ccc(C)s3)nc(N[C@H](CC)CO)nc21 | Cav2.1 channel | ion current, perforated patch clamp | HEK293 transfected with Cav2.1 | 50 µM, 100 ms steps from -100 to +20 mV | baseline: maximal effect | effect on tail current | 25 to 45% |
| CCCS[C@H]1[C@H](O)[C@@H](N)[C@@H](O[C@H]2[C@H](O[C@@H]3O[C@H](CO)[C@@H](O[C@H]4O[C@@H](CN)[C@@H](O)[C@H](O)[C@H]4N)[C@H]3O)[C@@H](O)[C@H](N)C[C@@H]2N)O[C@@H]1CO | bacterial hybrid ribosome, human mitochondrial A site | cell-free translation | – | – | baseline: mitochondrial hybrid over wild-type bacterial | selectivity ratio | 1790 |
| F[P-](F)(F)(F)(F)F.F[P-](F)(F)(F)(F)F.[Cu+2].c1ccc(CN2CCCNCCN(Cc3ccccc3)CCCNCC2)cc1 | Leishmania donovani | parasite growth, resazurin | – | 72 h, amastigote | – | IC90 | > 15000 nM |
| Cc1ncsc1-c1ccc(CNC(=O)[C@@H]2C[C@@H](O)CN2C(=O)[C@@H](NC(=O)CN2CCN(C3CN(CCNC(=O)c4cc5c(cc4CS(C)(=O)=O)-c4cn(C)c(=O)c6[nH]cc(c46)CN5c4ncc(F)cc4F)C3)CC2)C(C)(C)C)cc1 | Spodoptera frugiperda BRD3 | degrader, targeted MS | Spodoptera frugiperda L5 larvae | injection, 0.1 nmol/mg | – | degradation | 35% |
| CCCO[C@H]1[C@H](O)[C@@H](N)[C@@H](O[C@H]2[C@H](O[C@@H]3O[C@H](CO)[C@@H](O[C@H]4O[C@@H](CN)[C@@H](O)[C@H](O)[C@H]4N)[C@H]3O)[C@@H](O)[C@H](N)C[C@@H]2N)O[C@@H]1CO | Mycobacterium smegmatis ribosome G1491C | translation, cell-free translation | – | – | baseline: G1491C mutant over wild type | IC50 ratio | 2000 |
| Cc1cc(S(=O)(=O)Nc2ncccn2)c(F)cc1N(C)C1CCN([C@H](C)c2ccccc2)CC1 | Nav1.6 R1626A, human | ion current, inhibitor, patch clamp | – | – | baseline: R1626A over wild type | IC50 increase | > 1000 fold |
| NC[C@@H]1O[C@H](O[C@H]2[C@@H](O)[C@H](O[C@@H]3[C@@H](O)[C@H](N)C[C@H](N)[C@H]3O[C@H]3O[C@H](CO)[C@@H](CCO)[C@H](O)[C@H]3N)O[C@@H]2CO)[C@H](N)[C@@H](O)[C@@H]1O | bacterial hybrid ribosome, human cytoplasmic A site | cell-free translation | – | – | baseline: cytoplasmic hybrid over wild-type bacterial | selectivity ratio | 1700 |
| O=C(Oc1nsnc1N1CCOCC1)c1ccccc1 | trypsin | enzyme activity, gel-based | – | with: denatured BSA substrate | baseline: IgA1 protease over trypsin | selectivity ratio | ~3 fold |
| CC(C)CS[C@H]1[C@H](O)[C@@H](N)[C@@H](O[C@H]2[C@H](O[C@@H]3O[C@H](CO)[C@@H](O[C@H]4O[C@@H](CN)[C@@H](O)[C@H](O)[C@H]4N)[C@H]3O)[C@@H](O)[C@H](N)C[C@@H]2N)O[C@@H]1CO | bacterial hybrid ribosome, human mitochondrial A site | cell-free translation | – | – | baseline: mitochondrial hybrid over wild-type bacterial | selectivity ratio | 1800 |
| COc1ccc(S(=O)(=O)n2nc(OC(=O)c3cccc(-c4ccccc4)c3)cc2N)cc1 | dengue virus 2 protease S135A | ESI-TOF MS | – | 20 µM, 1 h, 25 °C | baseline: DMSO control | protein mass shift | 0 Da |
| CC[S+]([O-])C1C(CO)OC(OC2C(N)CC(N)C(O)C2OC2OC(CO)C(OC3OC(CN)C(O)C(O)C3N)C2O)C(N)C1O (mixture of isomers) | bacterial hybrid ribosome, human mitochondrial A1555G A site | cell-free translation | – | – | baseline: A1555G hybrid over wild-type bacterial | selectivity ratio | 278 |
| N[C@@H](Cc1ccc(C(=O)NCCc2ccc(-c3ccccc3)cc2)cc1)C(=O)N1Cc2ccccc2C[C@H]1C(=O)O | mu opioid receptor, guinea pig | antagonist | guinea pig ileum | – | – | Ke | 5.38 ± 0.38 µM |
| CC(C)S[C@H]1[C@H](O)[C@@H](N)[C@@H](O[C@H]2[C@H](O[C@@H]3O[C@H](CO)[C@@H](O[C@H]4O[C@@H](CN)[C@@H](O)[C@H](O)[C@H]4N)[C@H]3O)[C@@H](O)[C@H](N)C[C@@H]2N)O[C@@H]1CO | bacterial hybrid ribosome, human cytoplasmic A site | cell-free translation | – | – | baseline: cytoplasmic hybrid over wild-type bacterial | selectivity ratio | 1110 |
| CC(C)CC(C)n1ccn2cc(C(=O)NCc3ccc(F)cc3F)c(=O)c(O)c2c1=O (centres unmarked) | HIV-1 integrase wild type | viral replication | HOS, HIV-1 | single-round vector | – | EC50 | 4.2 ± 1 nM |
| NC[C@@H]1O[C@H](O[C@H]2[C@@H](O)[C@H](O[C@@H]3[C@@H](O)[C@H](N)C[C@H](N)[C@H]3O[C@H]3O[C@H](CO)[C@@H](SCCF)[C@H](O)[C@H]3N)O[C@@H]2CO)[C@H](N)[C@@H](O)[C@@H]1O | bacterial hybrid ribosome, human mitochondrial A1555G A site | cell-free translation | – | – | baseline: A1555G hybrid over wild-type bacterial | selectivity ratio | 867 |
| C[C@H](N)C(=O)N[C@@H](CO)C(=O)N[C@@H](C)C(=O)N[C@H]1CSC(=O)[C@H](Cc2ccccc2)NC(=O)[C@H](Cc2ccc(O)cc2)NC(=O)[C@H](C)NC(=O)[C@H](CO)NC1=O | AgrC-II | inhibitor, GFP reporter | Staphylococcus epidermidis, agr group-II reporter | 100 nM | – | AgrC-II activity | inhibited |

Repeated from above:
| Structure (SMILES) | tested on | assay | system | setting | how to read | endpoint | result |
| --- | --- | --- | --- | --- | --- | --- | --- |
| CC[S+]([O-])C1C(CO)OC(OC2C(N)CC(N)C(O)C2OC2OC(CO)C(OC3OC(CN)C(O)C(O)C3N)C2O)C(N)C1O (mixture of isomers) | bacterial hybrid ribosome, human mitochondrial A1555G A site | cell-free translation | – | – | baseline: A1555G hybrid over wild-type bacterial | selectivity ratio | 278 |
| N[C@@H](Cc1ccc(C(=O)NCCc2ccc(-c3ccccc3)cc2)cc1)C(=O)N1Cc2ccccc2C[C@H]1C(=O)O | mu opioid receptor, guinea pig | antagonist | guinea pig ileum | – | – | Ke | 5.38 ± 0.38 µM |
| CC(C)S[C@H]1[C@H](O)[C@@H](N)[C@@H](O[C@H]2[C@H](O[C@@H]3O[C@H](CO)[C@@H](O[C@H]4O[C@@H](CN)[C@@H](O)[C@H](O)[C@H]4N)[C@H]3O)[C@@H](O)[C@H](N)C[C@@H]2N)O[C@@H]1CO | bacterial hybrid ribosome, human cytoplasmic A site | cell-free translation | – | – | baseline: cytoplasmic hybrid over wild-type bacterial | selectivity ratio | 1110 |
